Earlier results as cited in several papers.
Compare with care: the assays were run in different laboratories. ± gives the spread as reported.
Tspo: Translocator protein (Tspo, Rattus norvegicus, UniProt P16257)
Chain of UniProt P16257 (whole entry, looked up): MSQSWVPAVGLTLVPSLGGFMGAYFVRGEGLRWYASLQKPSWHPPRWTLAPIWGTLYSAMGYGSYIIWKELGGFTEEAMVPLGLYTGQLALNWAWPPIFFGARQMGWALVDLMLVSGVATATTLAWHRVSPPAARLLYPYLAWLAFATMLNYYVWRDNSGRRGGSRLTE

Compound	target or system	assay	system	setting	how to read	measurement	result
C=CCN(CC=C)CCc1c[nH]c2ccc(F)cc12	Tspo					Ki	> 10 µM
Cc1cc(N)c2c(OCC(C)(C)C(=O)NC(C)C)cccc2n1	Salmonella enterica Typhimurium		TA98 and TA100	concentration not given, with and without S9		Ames test	negative
Cc1ncc2n1-c1ccc(Cl)cc1C(c1ccccc1F)=NC2	CYP3A hepatic		healthy human, fed	intravenous, 0.025 mg/kg, cocktail, least squares mean, together with: simeprevir 150 mg	reference: with over without simeprevir	Cmax ratio	0.78
CCCCCOc1ccc(-c2cc(-c3ccc(C(=O)N[C@H]4C[C@@H](O)[C@@H](O)NC(=O)[C@@H]5[C@@H](O)[C@@H](C)CN5C(=O)[C@H]([C@H](O)CC(N)=O)NC(=O)[C@H]([C@H](O)[C@@H](O)c5ccc(O)c(OS(=O)(=O)O)c5)NC(=O)[C@@H]5C[C@@H](O)CN5C(=O)[C@H]([C@@H](C)O)NC4=O)cc3)no2)cc1			adults with invasive candidiasis	100 mg daily, steady state		half-life	14 to 15 h
COc1ccc(CN(C(=O)[C@@H](N)Cc2c(C)cc(C(N)=O)cc2C)[C@@H](C)c2nc(-c3ccccc3)c[nH]2)cc1C(=O)O			human	300 mg single radiolabelled dose, 192 h		dose recovered in urine	0.12%
CN(CCCC(=O)O)N=O	Salmonella typhimurium	Ames test		concentration not given		mutagenicity	negative
O=[N+]([O-])c1cn2c(n1)OC[C@@H](OCc1ccc(OC(F)(F)F)cc1)C2			caseum	5 µM, 4 h, 37 °C		unbound fraction	7.31 ± 2.2%
C=CCN(CC=C)CCc1c[nH]c2ccc(OC)cc12	Tspo					Ki	> 10 µM
COc1ccc2c(c1)[C@]13CCCC[C@@H]1[C@H](C2)N(C)CC3	CYP2D6	substrate	healthy subjects, fed	oral, 30 mg, together with: simeprevir 150 mg	reference: with over without simeprevir	Cmax ratio	1.21
COc1cccc(C2(O)CCCCC2CN(C)C)c1 (centres unmarked)			human drug abusers	oral, 200 mg, peak, 100-point scale, unit not given	reference: placebo	drug liking-disliking	15
COc1c(N2CCNC(C)C2)c(F)cc2c(=O)c(C(=O)O)cn(C3CC3)c12 (centres unmarked)			caseum	5 µM, 4 h, 37 °C		unbound fraction	16.3 ± 4.2%
N[C@@H](Cc1ccc(N(CCCl)CCCl)cc1)C(=O)O	HGF, HPC, HPLF normal cells					CC50	> 200 µM
Cn1nnc(-c2ccc(-c3ccc(N4C[C@H](CO)OC4=O)cc3F)cn2)n1			caseum	5 µM, 4 h, 37 °C		unbound fraction	8.8 ± 1.8%
CC1=C(/C=C/C(C)=C/C=C/C(C)=C/C(=O)Nc2ccc(O)cc2)C(C)(C)CCC1			human, chemoprevention	100 to 400 mg daily		plasma concentration	≤ 3000 nM

A few entries again:
Compound	target or system	assay	system	setting	how to read	measurement	result
Cc1cc(N)c2c(OCC(C)(C)C(=O)NC(C)C)cccc2n1	Salmonella enterica Typhimurium		TA98 and TA100	concentration not given, with and without S9		Ames test	negative
Cc1ncc2n1-c1ccc(Cl)cc1C(c1ccccc1F)=NC2	CYP3A hepatic		healthy human, fed	intravenous, 0.025 mg/kg, cocktail, least squares mean, together with: simeprevir 150 mg	reference: with over without simeprevir	Cmax ratio	0.78
